Experimental data of several laboratories.
Every numbered part comes from another study and shows a few of its results, in no order. Several values in a cell are separate wells, animals, samples, runs or records.
UniProt Q9P1W9, sequence (whole entry, looked up): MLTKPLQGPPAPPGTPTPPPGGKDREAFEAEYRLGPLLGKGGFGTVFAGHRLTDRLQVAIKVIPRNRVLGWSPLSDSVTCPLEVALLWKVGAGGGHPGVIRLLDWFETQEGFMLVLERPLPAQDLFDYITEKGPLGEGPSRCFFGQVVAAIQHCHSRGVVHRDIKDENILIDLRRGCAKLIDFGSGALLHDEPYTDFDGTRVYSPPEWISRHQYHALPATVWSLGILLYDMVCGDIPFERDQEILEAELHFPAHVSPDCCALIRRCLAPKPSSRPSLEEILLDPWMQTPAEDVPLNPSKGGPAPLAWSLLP
UniProt Q15418, sequence (whole entry, looked up): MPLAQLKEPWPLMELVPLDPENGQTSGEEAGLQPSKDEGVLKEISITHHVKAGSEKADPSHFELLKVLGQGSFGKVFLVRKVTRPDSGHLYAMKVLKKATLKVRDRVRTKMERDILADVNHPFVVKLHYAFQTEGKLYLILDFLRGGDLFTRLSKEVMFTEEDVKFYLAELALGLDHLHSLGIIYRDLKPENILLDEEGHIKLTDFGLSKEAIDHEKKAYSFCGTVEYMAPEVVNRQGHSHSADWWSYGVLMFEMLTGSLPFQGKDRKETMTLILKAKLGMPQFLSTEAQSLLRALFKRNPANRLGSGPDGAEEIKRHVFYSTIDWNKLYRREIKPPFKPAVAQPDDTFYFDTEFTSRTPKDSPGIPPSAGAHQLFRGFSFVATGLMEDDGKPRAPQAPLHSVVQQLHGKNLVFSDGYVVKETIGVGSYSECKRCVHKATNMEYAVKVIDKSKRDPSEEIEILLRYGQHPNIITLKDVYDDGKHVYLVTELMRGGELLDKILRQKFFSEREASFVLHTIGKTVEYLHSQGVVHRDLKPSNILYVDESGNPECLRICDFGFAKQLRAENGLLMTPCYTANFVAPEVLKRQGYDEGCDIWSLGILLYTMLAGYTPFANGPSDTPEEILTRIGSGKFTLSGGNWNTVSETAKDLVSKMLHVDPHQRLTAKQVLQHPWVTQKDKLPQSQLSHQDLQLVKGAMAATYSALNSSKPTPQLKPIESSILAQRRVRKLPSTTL
UniProt Q9UQB9, sequence (whole entry, looked up): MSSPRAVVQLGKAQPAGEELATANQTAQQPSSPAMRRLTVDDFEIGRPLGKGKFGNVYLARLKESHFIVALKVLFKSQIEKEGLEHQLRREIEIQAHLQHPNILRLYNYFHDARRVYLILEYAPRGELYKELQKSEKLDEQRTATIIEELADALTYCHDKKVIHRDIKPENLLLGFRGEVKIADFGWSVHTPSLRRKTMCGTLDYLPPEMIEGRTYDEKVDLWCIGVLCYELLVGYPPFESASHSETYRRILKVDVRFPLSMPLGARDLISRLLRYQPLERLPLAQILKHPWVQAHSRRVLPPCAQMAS

Study 1 — cell line: mouse MPNST tumor cells; technique: high-content immunofluorescence imaging; item: nuclear SOX9; tested at: 10 µM; time: 12 h; notes: mean of 2 replicates; baseline: DMSO control; direction: higher = more nuclear SOX9; endpoint: nuclear SOX9 intensity
O=[N+]([O-])c1ccc(CSc2ncnc3c2ncn3[C@@H]2O[C@H](CO)[C@@H](O)[C@H]2O)cc1: 102 % of DMSO
Cc1cc(C(=O)Nc2cccc(C(=O)Nc3cccc(C(F)(F)F)c3)c2)on1: 99.4 % of DMSO
Cc1cc(C(C)Nc2ccc(F)c(-c3cc(C)c(C(=O)NC4(C(=O)O)CC4)c(C)c3)c2)ccc1Cl (stereo not drawn): 88.8 % of DMSO
CCNC1(C(N)=O)CCN(c2ncnc3c2nc(-c2ccccc2Cl)n3-c2ccc(Cl)cc2)CC1: 162 % of DMSO
N#Cc1ccc2[nH]cc(CCCCN3CCN(c4ccc5oc(C(N)=O)cc5c4)CC3)c2c1: 174 % of DMSO
CC(=O)Oc1cc(C(F)(F)F)ccc1C(=O)O: 91.9 % of DMSO
CN1CCN(C(c2ccccc2)c2ccccc2)CC1: 109 % of DMSO
CC(C)C(=O)SCCCCC[C@H](NC(=O)OC(C)(C)C)C(=O)NC12CC3CC(CC(C3)C1)C2: 116 % of DMSO
CC(C)(C)c1cc(C(C)(C)C)nc(N2CCn3c(nnc3-c3ccc(OC(F)(F)F)cc3)C2)n1: 120 % of DMSO
CCCOc1cc(N)ccc1C(=O)OCCN(CC)CC: 96.2 % of DMSO
Cc1cccc(C)c1OCC(C)N (stereo not drawn): 97.5 % of DMSO and 103 % of DMSO
CCCCC(C)(O)C/C=C/[C@H]1[C@H](O)CC(=O)[C@@H]1CCCCCCC(=O)OC (mixture of isomers): 102 % of DMSO
CC(C)c1nc(N(C)S(C)(=O)=O)nc(-c2ccc(F)cc2)c1/C=C/[C@@H](O)C[C@@H](O)CC(=O)O: 100 % of DMSO
CCOc1ccc(NC(=O)CC(C)O)cc1 (stereo not drawn): 91.3 % of DMSO
O=C(Nc1ccc(C(O)(C(F)(F)F)C(F)(F)F)cc1)c1ccc(C(F)(F)F)cc1: 99.6 % of DMSO
O=C1COc2nccc(-c3ccccc3F)c2CN1Cc1cc(C(F)(F)F)cc(C(F)(F)F)c1: 111 % of DMSO
COc1ccc(-n2c(C)c([N+](=O)[O-])c3ccc(O)cc32)cc1: 126 % of DMSO
Cn1cnc2c1c(=O)[nH]c(=O)n2C: 99.8 % of DMSO
O=C(Nc1ccc(C(O)(C(F)(F)F)C(F)(F)F)cc1)c1ccccc1Cl: 117 % of DMSO
NC1CCN(c2nc3c(cc2F)c(=O)c(C(=O)O)cn3-c2ccc(F)cc2F)C1 (stereo not drawn): 102 % of DMSO
COc1ccc(/C=C/C(=O)Nc2ccccc2C(=O)O)cc1OC: 95.2 % of DMSO and 102 % of DMSO

Study 2 — read-out: enzyme activity; action: inhibitor; tested at: 0.5 µM; baseline: control; endpoint: remaining activity
Structure (SMILES): O=C1NC(=O)c2c1c1c3ccccc3[nH]c1c1[nH]c3cc(Br)ccc3c21
Receptor-type tyrosine-protein kinase FLT3 (FLT3, Homo sapiens, UniProt P36888): 8.19%
Serine/threonine-protein kinase PAK 2 (PAK2, Homo sapiens, UniProt Q13177): 101%
Glycogen synthase kinase-3 alpha (GSK3A, Homo sapiens, UniProt P49840): 33.9%
Ephrin type-B receptor 2 (EPHB2, Homo sapiens, UniProt P29323): 99.5%
G protein-coupled receptor kinase 6 (GRK6, Homo sapiens, UniProt P43250): 108%
Tyrosine-protein kinase CSK (CSK, Homo sapiens, UniProt P41240): 100%
Ribosomal protein S6 kinase beta-1 (RPS6KB1, Homo sapiens, UniProt P23443): 45.2%
SRSF protein kinase 3 (SRPK3, Homo sapiens, UniProt Q9UPE1): 89.2%
Serine/threonine-protein kinase Sgk1 (SGK1, Homo sapiens, UniProt O00141): 47.6%
Aurora kinase C (AURKC, Homo sapiens, UniProt Q9UQB9): 51.9%
Beta-adrenergic receptor kinase 1 (GRK2, Homo sapiens, UniProt P25098): 97.6%
Myosin light chain kinase, smooth muscle (MYLK, Homo sapiens, UniProt Q15746): 85.3%
Macrophage colony-stimulating factor 1 receptor (CSF1R, Homo sapiens, UniProt P07333): 96%
Fibroblast growth factor receptor 4 (FGFR4, Homo sapiens, UniProt P22455): 90.6%
Protein kinase C epsilon type (PRKCE, Homo sapiens, UniProt Q02156): 95.7%
Ribosomal protein S6 kinase alpha-1 (RPS6KA1, Homo sapiens, UniProt Q15418): 58.4%
Serine/threonine-protein kinase pim-2 (PIM2, Homo sapiens, UniProt Q9P1W9): 44.6%
Cytoplasmic tyrosine-protein kinase BMX (BMX, Homo sapiens, UniProt P51813): 92%
Protein kinase C gamma type (PRKCG, Homo sapiens, UniProt P05129): 76.6%
NUAK family SNF1-like kinase 1 (NUAK1, Homo sapiens, UniProt O60285): 14.3%
Ephrin type-A receptor 7 (EPHA7, Homo sapiens, UniProt Q15375): 95.3%

Study 3 — action: inhibitor; tested at: concentration not given; together with: with ssDNA; endpoint: remaining activity
Target: DNA polymerase theta, helicase domain (POLQ, Homo sapiens, UniProt O75417)
UniProt O75417, sequence (whole entry, looked up): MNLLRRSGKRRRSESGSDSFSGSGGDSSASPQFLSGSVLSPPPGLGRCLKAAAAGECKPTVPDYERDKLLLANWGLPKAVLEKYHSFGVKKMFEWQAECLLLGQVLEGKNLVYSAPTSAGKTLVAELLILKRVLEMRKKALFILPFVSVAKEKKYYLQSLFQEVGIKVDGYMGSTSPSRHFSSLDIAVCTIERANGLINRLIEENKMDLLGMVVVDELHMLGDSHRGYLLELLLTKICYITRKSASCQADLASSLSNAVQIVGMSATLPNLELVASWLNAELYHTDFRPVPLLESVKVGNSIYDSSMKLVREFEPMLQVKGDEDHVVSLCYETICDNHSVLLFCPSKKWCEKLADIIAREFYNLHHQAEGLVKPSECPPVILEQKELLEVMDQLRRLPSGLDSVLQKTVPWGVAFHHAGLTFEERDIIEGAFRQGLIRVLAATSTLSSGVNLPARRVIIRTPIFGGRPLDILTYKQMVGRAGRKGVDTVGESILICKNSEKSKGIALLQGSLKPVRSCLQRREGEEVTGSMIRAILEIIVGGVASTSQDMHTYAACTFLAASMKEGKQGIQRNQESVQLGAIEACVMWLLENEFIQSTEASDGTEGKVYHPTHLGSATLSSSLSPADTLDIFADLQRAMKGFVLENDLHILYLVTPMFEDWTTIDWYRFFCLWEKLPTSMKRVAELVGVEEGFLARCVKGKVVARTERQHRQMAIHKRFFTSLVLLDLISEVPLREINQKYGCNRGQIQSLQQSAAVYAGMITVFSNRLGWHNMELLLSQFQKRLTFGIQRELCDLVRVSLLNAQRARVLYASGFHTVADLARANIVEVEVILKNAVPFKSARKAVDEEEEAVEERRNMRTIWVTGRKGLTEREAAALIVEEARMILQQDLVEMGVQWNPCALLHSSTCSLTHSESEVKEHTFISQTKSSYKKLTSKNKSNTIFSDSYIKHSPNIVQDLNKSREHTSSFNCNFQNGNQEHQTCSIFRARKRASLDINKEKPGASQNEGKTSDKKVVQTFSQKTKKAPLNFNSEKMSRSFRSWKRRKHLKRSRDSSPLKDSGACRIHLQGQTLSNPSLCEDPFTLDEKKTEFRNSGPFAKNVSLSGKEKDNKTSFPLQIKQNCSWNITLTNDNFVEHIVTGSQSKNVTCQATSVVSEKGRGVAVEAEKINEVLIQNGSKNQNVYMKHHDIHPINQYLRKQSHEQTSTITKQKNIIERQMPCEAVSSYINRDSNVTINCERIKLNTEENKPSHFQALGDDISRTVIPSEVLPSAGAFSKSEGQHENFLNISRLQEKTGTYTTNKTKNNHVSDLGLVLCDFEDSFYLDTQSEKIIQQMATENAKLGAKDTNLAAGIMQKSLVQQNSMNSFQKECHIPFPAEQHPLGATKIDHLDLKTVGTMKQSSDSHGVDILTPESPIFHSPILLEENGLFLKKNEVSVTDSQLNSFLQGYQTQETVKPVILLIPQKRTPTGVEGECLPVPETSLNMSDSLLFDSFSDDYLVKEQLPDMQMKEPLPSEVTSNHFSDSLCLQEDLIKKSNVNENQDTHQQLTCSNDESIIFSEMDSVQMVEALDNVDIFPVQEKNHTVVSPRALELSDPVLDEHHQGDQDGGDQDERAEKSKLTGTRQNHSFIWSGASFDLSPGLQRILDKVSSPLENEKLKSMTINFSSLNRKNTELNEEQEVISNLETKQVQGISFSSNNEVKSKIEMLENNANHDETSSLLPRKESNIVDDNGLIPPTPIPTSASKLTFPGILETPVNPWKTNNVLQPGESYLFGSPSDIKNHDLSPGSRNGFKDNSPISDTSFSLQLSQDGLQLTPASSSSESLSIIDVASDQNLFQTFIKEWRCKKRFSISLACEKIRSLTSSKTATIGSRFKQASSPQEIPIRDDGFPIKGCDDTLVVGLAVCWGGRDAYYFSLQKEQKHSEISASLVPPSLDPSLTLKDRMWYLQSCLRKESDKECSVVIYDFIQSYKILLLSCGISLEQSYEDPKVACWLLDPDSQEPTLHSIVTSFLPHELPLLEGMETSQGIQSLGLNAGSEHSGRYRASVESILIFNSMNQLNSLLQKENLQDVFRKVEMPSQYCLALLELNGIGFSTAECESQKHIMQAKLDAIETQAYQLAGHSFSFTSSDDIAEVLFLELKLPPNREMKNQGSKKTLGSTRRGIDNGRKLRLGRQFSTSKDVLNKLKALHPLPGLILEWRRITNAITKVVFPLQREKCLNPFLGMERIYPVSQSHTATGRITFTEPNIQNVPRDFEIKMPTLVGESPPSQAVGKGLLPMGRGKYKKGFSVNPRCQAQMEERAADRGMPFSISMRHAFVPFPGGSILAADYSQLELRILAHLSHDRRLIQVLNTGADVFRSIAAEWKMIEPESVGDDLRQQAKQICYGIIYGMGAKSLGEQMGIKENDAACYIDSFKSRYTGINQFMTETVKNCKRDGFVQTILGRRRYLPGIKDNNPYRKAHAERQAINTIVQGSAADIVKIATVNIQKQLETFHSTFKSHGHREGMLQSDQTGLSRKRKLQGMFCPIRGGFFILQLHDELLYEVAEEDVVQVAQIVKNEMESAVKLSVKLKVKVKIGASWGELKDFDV
CC(=O)[C@]1(O)Cc2c(O)c3c(c(O)c2[C@@H](O[C@H]2C[C@H](N)[C@H](O)[C@H](C)O2)C1)C(=O)c1ccccc1C3=O: 58.5% and 60.6% and 58.2% and 56.8%
COc1cccc2c1C(=O)c1c(O)c3c(c(O)c1C2=O)C[C@@](O)(C(C)=O)C[C@@H]3O[C@H]1C[C@H](N)[C@H](O)[C@H](C)O1: 53.8% and 51.8%
O=C(Nc1noc2ccccc12)c1ccc(F)cc1: 50.3% and 46.9%
N#CSc1cc(SC#N)c(N)nc1N: 26.1% and 25.1%
COc1cccc2c1C(=O)c1c(O)c3c(c(O)c1C2=O)C[C@@](O)(C(=O)CO)C[C@@H]3O[C@H]1C[C@H](N)[C@H](O)[C@H](C)O1: 47.9% and 48.3%
Cc1ccc(-c2n[nH]c3c2C(c2cccc(O)c2)N(c2ccc(C(=O)O)cc2)C3=O)cc1 (stereo not drawn): 63.5% and 64%
CC(C)(C)c1ccc(S(=O)(=O)c2cnc(SCC(=O)Nc3ccc4c(c3)OCCO4)[nH]c2=O)cc1: 70.1% and 63.4%
CSc1ccc(/C=C/c2nc3ccccc3n2S(=O)(=O)c2cccc(Cl)c2)cc1: 48.6% and 47.3%
COc1ccc(S(=O)(=O)c2cnc(SCC(=O)Nc3cc(F)ccc3C)[nH]c2=O)cc1Cl: 55.8% and 60%
Cc1ccc(C2C=C(c3ccccc3)N=C3N=C(NS(C)(=O)=O)NN32)cc1 (stereo not drawn): 89.7% and 90.7%
CC1(C)Cc2c(-c3ccccc3)c(-c3ccc(Cl)cc3)c(CC(=O)O)n2C1: 70.2% and 66.3%

Study 4 — read-out: cell-free assay; technique: competition with immobilised ligand; tested at: 1 µM; endpoint: remaining binding
SMILES: CN(C)C(=O)Cn1cc(-c2nc(C3(c4ccc(-c5cnc(N)nc5)cc4)CC3)no2)cn1
Phosphorylase b kinase gamma catalytic chain, skeletal muscle/heart isoform (PHKG1, Homo sapiens, UniProt Q16816): 97%
Tyrosine-protein kinase ITK/TSK (ITK, Homo sapiens, UniProt Q08881): 92%
Serine/threonine-protein kinase PAK 4 (PAK4, Homo sapiens, UniProt O96013): 100%
Mitogen-activated protein kinase 9 (MAPK9, Homo sapiens, UniProt P45984): 81%
Serine/threonine-protein kinase pim-2 (PIM2, Homo sapiens, UniProt Q9P1W9): 100%
Epidermal growth factor receptor (EGFR, Homo sapiens, UniProt P00533): 93%
Cyclin-dependent kinase 4, with cyclin D1 (CDK4, Homo sapiens, UniProt P11802): 44%
Tyrosine-protein kinase ABL1, phosphorylated (ABL1, Homo sapiens, UniProt P00519, F317L): 85%
Ephrin type-A receptor 6 (EPHA6, Homo sapiens, UniProt Q9UF33): 99%
Cyclin-dependent kinase 8 (CDK8, Homo sapiens, UniProt P49336): 100%
Mitogen-activated protein kinase kinase kinase 2 (MAP3K2, Homo sapiens, UniProt Q9Y2U5): 93%
Ribosomal protein S6 kinase alpha-1, N-terminal kinase domain (RPS6KA1, Homo sapiens, UniProt Q15418): 99%
Hormonally up-regulated neu tumor-associated kinase (HUNK, Homo sapiens, UniProt P57058): 96%
Tyrosine-protein kinase ABL1, phosphorylated (ABL1, Homo sapiens, UniProt P00519, T315I): 100%
Phosphatidylinositol 4,5-bisphosphate 3-kinase catalytic subunit alpha isoform (PIK3CA, Homo sapiens, UniProt P42336, C420R): 95%
Rhodopsin kinase GRK7 (GRK7, Homo sapiens, UniProt Q8WTQ7): 84%
Serine/threonine-protein kinase TAO2 (TAOK2, Homo sapiens, UniProt Q9UL54): 100%
Mitogen-activated protein kinase 12 (MAPK12, Homo sapiens, UniProt P53778): 62%
Mitogen-activated protein kinase 15 (MAPK15, Homo sapiens, UniProt Q8TD08): 96%
Mitogen-activated protein kinase 10 (MAPK10, Homo sapiens, UniProt P53779): 93%
Serine/threonine-protein kinase OSR1 (OXSR1, Homo sapiens, UniProt O95747): 82%
Serine/threonine-protein kinase D2 (PRKD2, Homo sapiens, UniProt Q9BZL6): 89%
Ephrin type-A receptor 3 (EPHA3, Homo sapiens, UniProt P29320): 89%
Serine/threonine-protein kinase Nek1 (NEK1, Homo sapiens, UniProt Q96PY6): 100%
Phosphatidylinositol 4,5-bisphosphate 3-kinase catalytic subunit gamma isoform (PIK3CG, Homo sapiens, UniProt P48736): 85%

A few entries again (study 4):
Cyclin-dependent kinase 4, with cyclin D1 (CDK4, Homo sapiens, UniProt P11802): 44%
Hormonally up-regulated neu tumor-associated kinase (HUNK, Homo sapiens, UniProt P57058): 96%
Mitogen-activated protein kinase 10 (MAPK10, Homo sapiens, UniProt P53779): 93%
Serine/threonine-protein kinase OSR1 (OXSR1, Homo sapiens, UniProt O95747): 82%
Ribosomal protein S6 kinase alpha-1, N-terminal kinase domain (RPS6KA1, Homo sapiens, UniProt Q15418): 99%
Ephrin type-A receptor 6 (EPHA6, Homo sapiens, UniProt Q9UF33): 99%
Ephrin type-A receptor 3 (EPHA3, Homo sapiens, UniProt P29320): 89%
Phosphatidylinositol 4,5-bisphosphate 3-kinase catalytic subunit gamma isoform (PIK3CG, Homo sapiens, UniProt P48736): 85%
Tyrosine-protein kinase ABL1, phosphorylated (ABL1, Homo sapiens, UniProt P00519, F317L): 85%
Serine/threonine-protein kinase Nek1 (NEK1, Homo sapiens, UniProt Q96PY6): 100%
Tyrosine-protein kinase ITK/TSK (ITK, Homo sapiens, UniProt Q08881): 92%
